{"data": "Assay results gathered from unrelated publications", "note": "Lines come from different studies, so protocols differ. Several values in a cell are separate wells, animals, samples, runs or records. ± gives the spread as reported. Ends that are not written are not given here."}
{"Substance": "Cc1c(C(=O)NN2CCCCC2)nn(-c2ccc(Cl)cc2Cl)c1-c1ccc(Cl)cc1", "test system": "rat, diet-induced obese, plasma", "setting": "peripheral, 10 mg/kg per day, 6 days", "quantity": "insulin level", "value": "1.38 ± 0.23 ng/mL"}
{"Substance": "cotadutide", "assay": "item: total daily insulin dose", "test system": "human, type 2 diabetes, CKD, insulin-treated", "setting": "dose not given, median", "how to read": "relative to: baseline", "quantity": "change in insulin dose", "value": "-37%"}
{"Substance": "Cc1c(OCC(F)(F)F)ccnc1C[S@@+]([O-])c1nc2ccccc2[nH]1", "test system": "healthy humans", "setting": "oral, 60 mg, 0 to 24 h postdose, pH 4 threshold, single dose", "quantity": "time with intragastric pH above threshold", "value": "58%"}
{"Substance": "O=C(O)Cc1ccccc1Nc1c(Cl)cccc1Cl", "test system": "rat carrageenan paw oedema", "setting": "10 mg/kg, 2 h", "quantity": "paw volume increase", "value": "0.21 ± 0.02 mm"}
{"Substance": "COc1cc(F)c([C@@H]2CNC(=O)[C@H]2NC(=O)Nc2ccccc2)c(F)c1", "assay": "zymosan phagocytosis, stimulator", "test system": "peritoneal macrophages FPR1 knockout, mouse", "setting": "BioGel-elicited", "quantity": "EC50", "value": "~0.002 nM"}
{"Substance": "insulin aspart", "assay": "euglycemic clamp", "test system": "healthy humans", "setting": "subcutaneous, 0.2 IU/kg, 0 to 8 h, after propensity score matching", "quantity": "glucose infusion AUC", "value": "1440 ± 397 mg/kg"}
{"Substance": "C=CCc1ccc(O)c(-c2ccc(O)c(CC=C)c2)c1", "test system": "high-fat diet/STZ type 2 diabetic mice", "setting": "oral, 200 mg/kg once daily, 8 weeks", "how to read": "relative to: diabetic control", "quantity": "fasting blood glucose", "value": "decreased"}
{"Substance": "CCCOc1ccc(S(=O)(=O)NCCC2CCCN2C)cc1-c1nc2c(CCC)nn(C)c2c(=O)[nH]1 (stereo not shown)", "assay": "blood pool echocardiography", "test system": "human adolescents after Fontan palliation", "setting": "oral, 87.5 mg twice daily, day 5", "how to read": "relative to: baseline, negative is improvement", "quantity": "change in myocardial performance index", "value": "-0.12 ± 0.09"}
{"Substance": "O=c1cc(-c2ccccc2)oc2c1ccc1ccccc12", "assay": "item: 18:1-LPC/18:0-LPC and 16:1-LPC/16:0-LPC", "test system": "C57BL/6J mice", "setting": "i.p., 80 mg/kg/day, 7 days, added: elemicin 500 mg/kg oral", "how to read": "relative to: elemicin alone", "quantity": "LPC ratios", "value": "increased"}
{"Substance": "CC(C)C[C@H](NC(=O)[C@H](CO)NC(=O)[C@H](CCCNC(=N)N)NC(=O)[C@H](CC(=O)O)NC(=O)[C@H](CCC(=O)O)NC(=O)[C@H](C)NC(=O)[C@@H]1CCCN1C(=O)[C@H](C)NC(=O)[C@H](CCC(=O)O)NC(=O)[C@@H]1CCCN1C(=O)[C@@H]1CCCN1)C(N)=O", "assay": "item: tyrosine hydroxylase", "test system": "rat F344, unilateral 6-OHDA lesion, lesioned SNpc caudal, -5.96 mm from bregma", "setting": "intranasal, 300 µg daily", "quantity": "TH+ neuron number", "value": "26 ± 7"}
{"Substance": "CCCn1c(=O)n(C2CC2)c(=O)c2[nH]c(-c3ccc(N(CC)C(=O)c4cccnc4)nc3)nc21", "test system": "KKA diabetic mice", "setting": "oral, 20 mg/kg four times at 12 h intervals, 2 day", "quantity": "basal plasma glucose", "value": "no effect"}
{"Substance": "SIYNFEKL", "assay": "flow cytometry, item: CD44hi CD8+ T cells", "test system": "peptide, OT-I CD8+ T cells, mouse", "setting": "1 µg/mL loading, primed 5 days, TGF-β1 from day 2 onward, added: 20 ng/mL TGF-β1", "quantity": "triple cytokine producers", "value": "36.4%"}
{"Substance": "Cc1c(-c2nnc(SC/C(=N/O)c3ccc(Cl)cc3)n2-c2ccccc2)nnn1-c1ccc(S(N)(=O)=O)cc1", "assay": "Griess", "test system": "phosphate buffer-methanol", "setting": "100 µM, 1 h, pH 7.4, 37 °C, added: N-acetylcysteine 0.5 mM", "how to read": "relative to: theoretical maximum release", "quantity": "NO released", "value": "0.73%"}
{"Substance": "COc1cnc(C(=O)Nc2ccc(F)c([C@]34CN(c5ncc(F)cn5)C[C@H]3CSC(N)=N4)c2)cn1", "assay": "item: CSF Aβ1–40 and Aβ1–42", "test system": "healthy humans", "setting": "26 mg single dose", "quantity": "time to nadir", "value": "~28 h"}
{"Substance": "Cc1ccc(NC(=O)c2ccc(CN3CCN(C)CC3)cc2)cc1Nc1nccc(-c2cncc(-c3oncc3C)c2)n1", "test system": "mild-to-moderate Parkinson's disease patients", "setting": "oral, 100 mg once daily, day 7, on anti-Parkinson medication", "how to read": "direction not given", "quantity": "NMSS score", "value": "19.2 ± 18.7"}
{"Substance": "COc1ccc2c(c1)c(CC(=O)O)c(C)n2C(=O)c1ccc(Cl)cc1", "assay": "multiplex bead immunoassay, item: IL-5", "test system": "CD-1 mice, serum", "setting": "ip, 20 mg/kg, three-injection regimen, added: LPS 3 mg/kg", "quantity": "cytokine level", "value": "155 ± 94.4 pg/mL"}
{"Substance": "CS/C(S)=N/CCCC[S+](C)[O-] (racemic)", "assay": "RT-PCR, item: Nqo1", "test system": "rat, liver", "setting": "oral gavage, 200 mg/kg, 96 h, dosed for four days", "how to read": "relative to: vehicle", "quantity": "mRNA fold change", "value": 1.26}
{"Substance": "bovine insulin", "assay": "blood glucose lowering", "test system": "Sprague-Dawley rats", "setting": "intestinal closed loop, 50 IU/kg", "how to read": "relative to: s.c. 1.0 IU/kg", "quantity": "pharmacological availability", "value": "0.56 ± 0.44%"}
{"Substance": "PACAP", "test system": "APP V717I transgenic mouse, male", "setting": "intranasal, 10 µg daily, 3 months", "quantity": "full-length APP level", "value": "no effect"}
{"Substance": "O=C(NC[C@H]1CN(c2ccc(N3CCOCC3=O)cc2)C(=O)O1)c1ccc(Cl)s1", "test system": "human, mild renal impairment, plasma", "setting": "oral, 10 mg, added: erythromycin at steady state", "how to read": "relative to: normal renal function, compound alone", "quantity": "prothrombin time Emax increase", "value": "~20%"}
{"Substance": "cilengitide", "test system": "Sprague-Dawley rats, TNBS colitis, colonic smooth muscle cells", "setting": "ip, 18 mg/kg/day, 42 d", "quantity": "total TGF-β1 level", "value": "16.4 ± 0.7 ng/mg protein"}
{"Substance": "COc1ccc(/C(CSc2nnc(-c3nnn(-c4ccc(S(N)(=O)=O)cc4)c3C)n2-c2ccc(OC)cc2)=N\\O)cc1", "assay": "Griess", "test system": "phosphate buffer-methanol", "setting": "100 µM, 1 h, pH 7.4, 37 °C, added: N-acetylcysteine 0.5 mM", "how to read": "relative to: theoretical maximum release", "quantity": "NO released", "value": "2.55%"}
{"Substance": "YEGKK", "assay": "neovascularization, [3H]thymidine labelling", "test system": "peptide, BALB/c mouse female, sponge implant granulation tissue", "setting": "100 µM, day 10", "quantity": "labelled endothelial cells", "value": "10.2%"}
{"Substance": "C[C@H]1C[C@H]2CSC(N)=N[C@@]2(c2nc(NC(=O)c3ccc(OC(F)F)cn3)cs2)CO1", "assay": "item: CSF sAPPα", "test system": "healthy adults", "setting": "125 mg once daily, 14 days, day 15", "how to read": "relative to: placebo-adjusted baseline", "quantity": "change from baseline", "value": "72.9%"}
{"Substance": "C=CCOC(=O)CCC(=O)Oc1ccc(/C=C/C(=O)/C=C(O)/C=C/c2ccc(OC(=O)CCC(=O)OCC=C)c(OC)c2)cc1OC", "assay": "IL-6 secretion, ELISA", "test system": "peritoneal macrophages, C57BL/6 mice", "setting": "added: LPS 10 ng/mL", "quantity": "IC50", "value": "14200 ± 12800 nM"}
{"Substance": "insulin aspart", "assay": "euglycemic clamp", "test system": "human, type 1 diabetes", "setting": "sc, 9 × 2 IU dispersed boluses", "quantity": "time to 10% of maximum GIR", "value": "23 ± 6 min"}
{"Substance": "Cc1cc(C(C)(C)C)c(O)c(C(C)(C)C)c1", "setting": "100 µg/mL", "quantity": "DPPH radical scavenging", "value": "76.7%"}
{"Substance": "Cc1cc(C)c(/C=C2\\C(=O)Nc3ccccc32)[nH]1", "assay": "MRI", "test system": "human", "setting": "concentration not given, 7.0 months", "quantity": "tumour area", "value": "1.31 cm²"}
{"Substance": "CYILNCPIG ([Leu4,Ile8]oxytocin; ends and bridges not checked; cysteine pairing not given here; sequence looked up)", "assay": "antagonist", "test system": "peptide, Bufo marinus urinary bladder", "setting": "added: oxytocin", "quantity": "pA2", "value": 5.94}
{"Substance": "CC[C@H](C)[C@H](NC(=O)[C@H](CCC(N)=O)NC(=O)[C@H](Cc1c[nH]cn1)NC(=O)[C@H](C)NC(=O)[C@H](CC(C)C)NC(=O)[C@H](CCCCN)NC(=O)[C@H](CCC(N)=O)NC(=O)[C@@H](NC(=O)[C@@H](NC(=O)[C@@H]1CSSC[C@H](NC(=O)CNC(=O)[C@H](Cc2ccccc2)NC(=O)[C@H](CO)NC(=O)[C@H](CCCNC(=N)N)NC(=O)[C@H](CC(C)C)NC(=O)CNC(=O)[C@H](CCC(N)=O)NC(=O)[C@H](Cc2ccccc2)NC(=O)[C@H](CC(N)=O)NC(=O)[C@H](CC(N)=O)NC(=O)[C@H](CCSC)NC(=O)[C@H](CO)NC(=O)[C@H](CCC(N)=O)NC(=O)[C@H](CCCNC(=N)N)NC(=O)[C@@H](N)Cc2ccc(O)cc2)C(=O)N[C@@H](CCCNC(=N)N)C(=O)N[C@@H](Cc2ccccc2)C(=O)NCC(=O)N[C@@H]([C@@H](C)O)C(=O)N1)[C@@H](C)O)C(C)C)C(=O)N[C@@H](Cc1ccc(O)cc1)C(=O)N[C@@H](CCC(N)=O)C(=O)N[C@@H](Cc1ccccc1)C(=O)N[C@H](C(=O)N[C@@H](CC(=O)O)C(=O)N[C@@H](CCCCN)C(=O)N[C@@H](CC(=O)O)C(=O)N[C@@H](CCCCN)C(=O)N[C@@H](CC(=O)O)C(=O)N[C@@H](CC(N)=O)C(=O)N[C@H](C(=O)N[C@@H](C)C(=O)N1CCC[C@H]1C(=O)N[C@@H](CCCNC(=N)N)C(=O)N[C@@H](CO)C(=O)N[C@@H](CCCCN)C(=O)N[C@H](C(=O)N[C@@H](CO)C(=O)N1CCC[C@H]1C(=O)N[C@@H](CCC(N)=O)C(=O)NCC(=O)N[C@@H](Cc1ccc(O)cc1)C(N)=O)[C@@H](C)CC)C(C)C)[C@@H](C)O", "test system": "patients, biologic-resistant Crohn's disease", "setting": "intravenous infusion, 15 ng/kg/min, 16 weeks, unit not given, added: biologic", "how to read": "relative to: baseline", "quantity": "change in CDAI", "value": "-84 ± 62"}
{"Substance": "SIIVFEKL", "assay": "flow cytometry, item: CD44hi CD8+ T cells", "test system": "peptide, OT-I CD8+ T cells, mouse", "setting": "dose not given, primed 5 days, TGF-β1 from day 2 onward, added: 20 ng/mL TGF-β1", "quantity": "IFN-γ+ TNF-α+ cells", "value": "0.44%"}
{"Substance": "O=C(/C=C/c1ccc(O)c(O)c1O)c1ccc(O)c(O)c1O", "test system": "ethanol", "setting": "20 µM, 30 min", "quantity": "DPPH scavenging", "value": "> 80%"}
{"Substance": "Oc1ncnc2[nH]ncc12", "test system": "male gout patients, serum", "setting": "300 mg, 24 h, steady state, added: verinurad 10 mg alone or combined", "how to read": "relative to: baseline", "quantity": "change in serum uric acid", "value": "-36%"}
{"Substance": "CCn1cnc(C[C@H](NC(=O)[C@@H]2CCC(=O)C2)C(=O)N2CCC[C@H]2C(N)=O)c1", "test system": "Swiss albino mice", "setting": "intravenous, 10 µmol/kg, added: pentobarbital", "how to read": "relative to: control", "quantity": "decrease in sleeping time", "value": "69% and 68.8%"}
{"Substance": "C[C@@H]1COCCN1c1cc([C@]2(O)C[C@H]3CC[C@@H](C2)O3)c2cnn(-c3cc[nH]n3)c2n1", "assay": "CHK1 phosphorylation, inhibitor, item: pCHK1 Ser345", "test system": "mouse, LoVo xenograft, free plasma", "setting": "1 and 3 h", "quantity": "IC80", "value": "18.6 nM"}
{"Substance": "CCOC(=O)CSc1nnc(C23CC4CC(CC(C4)C2)C3)n1-c1ccccc1", "test system": "rat carrageenan paw oedema", "setting": "intraperitoneal, 40 mg/kg, 4 h after carrageenan", "how to read": "relative to: vehicle control", "quantity": "paw oedema inhibition", "value": "> 50%"}
{"Substance": "CN(C)C(=O)N[C@H]1CC[C@H](CCN2CCN(c3cccc(Cl)c3Cl)CC2)CC1", "assay": "open field", "test system": "Sprague-Dawley rat, ouabain mania model", "setting": "intraperitoneal, 0.25 mg/kg, 1 h pretreatment, 30 min observation, added: ouabain i.c.v.", "quantity": "locomotor activity", "value": "72.7 ± 11.7 squares crossed"}
